Published values of several laboratories.
± marks the error that the study gave. Bridges are numbered along the chain shown (N, C = ends).
B1: disulfide; chain MRGSHHHHHHGSNEKGETSEKTIVRANGTRLEYTDIKSDGIEGRVDGGGGSDDDDKMACGYSSFNRCGGGS (disulfide 59-67 (inferred))

| Molecule | target or system | test | test system | setting | endpoint | value |
| --- | --- | --- | --- | --- | --- | --- |
| C=C1[C@H](CO)[C@@H](O)C[C@@H]1n1cnc2c(=O)[nH]c(N)nc21 | hepatitis B virus | viral replication | HepG2.2.15 | – | EC50 | 0.008 ± 0.001 µM |
| [H]/N=C(/N)NS(=O)(=O)c1ccc(N)cc1 | Human gammaherpesvirus 8 | latent viral DNA | BC-3 | – | EC50 | 21 ± 5 µg/mL |
| Cc1ccc(S(=O)(=O)N2C(=O)CSC2c2cccc([N+](=O)[O-])c2)cc1 (centres unmarked) | herpes simplex virus 2 | viral cytopathicity | HEL, G | – | EC50 | > 100 µM |
| CC(C)[C@]12O[C@H]1[C@@H]1O[C@]13[C@]1(O[C@H]1C[C@H]1C4=C(CC[C@@]13C)C(=O)OC4)[C@@H]2O | human respiratory syncytial virus | viral replication | BEAS-2B | – | EC50 | 0.4 µM |
| CC1SC2(CCCCC2)N(NC(=O)Cc2csc3nc(-c4ccc(Br)cc4)cn23)C1=O (centres unmarked) | feline coronavirus | viral cytopathic effect | CRFK | – | EC50 | > 100 µg/mL |
| CNC(=O)c1ccc(-c2cnn3ccc(C(=O)N(C)c4ccc(Cl)c(C(=O)OC)c4)cc23)cc1 | Cryptosporidium parvum | cytopathic effect | HCT-8 | 48 h | EC50 | 0.052 ± 0.013 µM |
| N#Cc1nc(-c2ccccc2)oc1S(=O)(=O)c1ccc(Cl)cc1 | Leishmania amazonensis | alamarBlue | axenic amastigotes | 72 h | EC50 | 0.051 ± 0.0037 µM |
| Cc1ccc(S(=O)(=O)N2C(=O)CSC2c2ccccc2[N+](=O)[O-])cc1 (centres unmarked) | herpes simplex virus 2 | viral cytopathicity | HEL, G | – | EC50 | > 100 µM |
| C[C@H](Cn1cnc2c(N)ncnc21)OCP(=O)(O)O | human alphaherpesvirus 1 | viral replication | HEL | 72 h | EC50 | 132 ± 20 µg/mL |
| COc1cc([C@@H]2c3cc4c(cc3C(=O)[C@H]3COC(=O)[C@H]23)OCO4)cc(OC)c1OC | Leishmania infantum | intracellular amastigote growth, iRFP fluorescence | infected mouse splenocyte explants | 48 h | EC50 | > 100 µM |
| B1 | Borrelia garinii | cyst to spirochete conversion, flow cytometry | SKT-7.1 | 16 h | EC50 | 0.83 µM |
| Cc1ccc(S(=O)(=O)N2C(=O)CSC2c2ccccc2)cc1 (centres unmarked) | HIV-2 | viral cytopathicity, MTT | MT-4, ROD | – | EC50 | > 125 µM |
| CC1=C(/C=C/C(C)=C/C=C/C(C)=C/C(=O)Nc2ccc(O)cc2)C(C)(C)CCC1 | human respiratory syncytial virus | viral replication | BEAS-2B | – | EC50 | 3.6 µM |
| CC(C)c1cc2c(cc1O)[C@@]1(C)CCC[C@@](C)(C=O)[C@@H]1CC2 | human alphaherpesvirus 1 | viral replication, plaque reduction | Vero | 72 h, pre-infection treatment | EC50 | > 20.8 µM |
| O=c1[nH]c(=O)n([C@H]2C[C@H](O)[C@@H](CO)O2)cc1/C=C/Br | Human alphaherpesvirus 3 | viral replication | HEL, TK-deficient 07-1 and YS-R | – | EC50 | 26 to 165 µM |
| COc1cc([C@@H]2c3cc4c(cc3C[C@H]3COC(=O)[C@@H]32)OCO4)cc(OC)c1OC | Leishmania infantum | parasite growth | – | promastigote | EC50 | > 100 µM |
| C[C@H](Cn1cnc2c(=O)[nH]c(=O)[nH]c21)OCP(=O)(O)O | Human alphaherpesvirus 3 | plaque formation, inhibitor | HEL | – | EC50 | > 100 µM |
| CCOP(=O)(OCC)[C@H]1C[C@@H](Cn2c(=O)n(C(=O)c3ccccc3)c(=O)c3ccccc32)ON1C | human alphaherpesvirus 3 | viral replication, plaque reduction | HEL, Oka TK+ | – | EC50 | 6.9 to 7.5 µM |
| Nc1nc2c(ncn2COC(CO)CO)c(=O)[nH]1 | human alphaherpesvirus 1 | viral replication | HEL cells | – | EC50 | 2 µM |
| O=C(Cc1csc2nc(-c3ccc(Br)cc3)cn12)NN=C1CCC(c2ccc(O)cc2)CC1 (centres unmarked) | feline coronavirus | viral cytopathic effect | CRFK | – | EC50 | > 100 µg/mL |
| CN[C@@](C)(C[18F])C(=O)O | – | – | SCID mouse A549 xenograft, spleen | 120 min, post injection | tissue uptake | 6.2 ± 0.4 %ID/g |
| CCc1c(C)nc(-n2nc(C)cc2NC(=O)c2ccc(F)c(Cl)c2)[nH]c1=O | Leishmania amazonensis | alamarBlue | axenic amastigotes | 72 h | EC50 | 0.02 ± 0.0009 µM |

| Molecule | target or system | test | test system | setting | endpoint | value |
| --- | --- | --- | --- | --- | --- | --- |
| Cc1oncc1C(=O)Nc1ccc(C(F)(F)F)cc1 | human coronavirus OC43 | cytopathic effect, CellTiter-Glo | Huh-7 | 7 d | EC50 | > 100 µM |
| Cc1ccc(S(=O)(=O)N2C(=O)CSC2c2ccc(Cl)cc2)cc1 (centres unmarked) | herpes simplex virus 2 | viral cytopathicity | HEL, G | – | EC50 | > 100 µM |
| CC1(C)N=C(N)N=C(N)N1c1ccc(Cl)c(Cl)c1 | human respiratory syncytial virus | cytopathic effect, microscopy | HeLa, Long | – | EC50 | ~0.008 µM |
| Cc1ccc(S(=O)(=O)N2C(=O)CSC2c2cccc(Br)c2)cc1 (centres unmarked) | HIV-2 | viral cytopathicity, MTT | MT-4, ROD | – | EC50 | > 125 µM |
| CC(=CC(=O)NCCCCNc1cc(C(F)(F)F)nc2c(C(F)(F)F)cccc12)C(=O)NCCCCNc1cc(C(F)(F)F)nc2c(C(F)(F)F)cccc12 | Coxsackievirus B4 | viral cytopathic effect, MTS | HEp-2 | – | EC50 | 1.5 µM |
| Cc1ccc(S(=O)(=O)N2C(=O)CSC2c2ccc([N+](=O)[O-])cc2)cc1 (centres unmarked) | HIV-2 | viral cytopathicity, MTT | MT-4, ROD | – | EC50 | > 125 µM |
| COc1nc(N)nc2c1ncn2CCC(COP(=O)(N[C@@H](C)C(=O)OCc1ccccc1)Oc1ccccc1)COP(=O)(N[C@@H](C)C(=O)OCc1ccccc1)Oc1ccccc1 (some centres unmarked) | human alphaherpesvirus 1 | viral replication | HEL, KOS | – | EC50 | > 100 µM |
| Cc1cccc(-c2ccc([C@@H]3[C@@H](CO)N4CCCCN(S(=O)(=O)c5cn(C)cn5)C[C@@H]34)cc2)c1 | Respiratory syncytial virus | cytopathic effect | A2 | – | EC50 | 3.9 µM |
| COc1ccc(-n2c(SC(C)C(=O)Nc3ccc(C)cc3Cl)nc3ccccc32)cc1 (centres unmarked) | Measles morbillivirus | viral replication | Alaska | – | EC50 | 0.17 µM |
| CCCC(=O)OCSc1ccccc1C(=O)NCCC(N)=O | HIV-1 | viral replication | human monocytes/macrophages, subtype B 91US005, CCR5-tropic | – | EC50 | 0.6 µM |
| Cc1ccc(S(=O)(=O)N2C(=O)CSC2c2ccccc2O)cc1 (centres unmarked) | herpes simplex virus 2 | viral cytopathicity | HEL, G | – | EC50 | > 100 µM |
| COc1ccc([C@@]23Oc4cc(OC)cc(OC)c4[C@]2(O)c2nc(-c4cccc(OC)c4)[nH]c(=O)c2[C@H]3c2ccccc2)cc1 | hepatitis C virus | viral infection, luciferase reporter HCVcc | Huh-7.5.1 | racemate | EC50 | ~0.5 µM |
| C[C@H](NP(=O)(OCCOCn1cnc2c(=O)[nH]c(N)nc21)Oc1cccc2ccccc12)C(=O)OC(C)(C)C (some centres unmarked) | herpes simplex virus 2 | cytopathic effect | HEL fibroblasts, G | – | EC50 | ≥ 50 µM |
| COC(=O)N[C@H](C(=O)N1CCC[C@H]1c1ncc(-c2ccc(-c3ccc(-c4cnc([C@@H]5CCCN5C(=O)[C@@H](NC(=O)OC)C(C)C)[nH]4)cc3)cc2)[nH]1)C(C)C | hepatitis C virus | viral replication, transient replicon | genotype 1b replicon NS5A Y93H | – | EC50 | 4.9e-05 ± 1.3e-05 µM |
| CN[C@@H]1[C@H](O[C@@H]2OC[C@@H](O)[C@H](O)[C@H]2O)[C@@H](O)[C@H](O[C@H]2c3cc(C)c(C(=O)N[C@H](C)C(=O)O)c(O)c3-c3c(cc4c(c3O)C(=O)c3cc(OC)cc(O)c3C4=O)[C@@H]2O)O[C@@H]1C | feline coronavirus | viral cytopathicity, MTT | FCWF, 79-1683, serotype II | 48 h | EC50 | > 120 µM |
| CC(=Nc1ccccc1N)c1c(C)cc(=O)n(O)c1O | hepatitis B virus | viral replication, strand-preferential qPCR, item: plus-strand DNA | HepDES19, genotype D | 3 days | EC50 | 0.69 ± 0.2 µM |
| Cc1c(C(=O)C(=O)NCc2cn(CCCCCCCCCCCCCCn3cc(CNC(=O)C(=O)c4c(C)c(C(=O)Nc5ccc(F)c(F)c5)n(C)c4C)nn3)nn2)c(C)n(C)c1C(=O)Nc1ccc(F)c(F)c1 | hepatitis B virus | viral replication, immunofluorescence, item: HBcAg | HBV-infected HepG2-NTCP cells | 7 days post-infection, dosed from 24 h pre-infection | EC50 | 0.067 ± 0.053 µM |
| CC(C)[C@@H]1NC(=O)[C@H](C)OC(=O)[C@@H](C(C)C)NC(=O)[C@@H](C(C)C)OC(=O)[C@H](C(C)C)NC(=O)[C@H](C)OC(=O)[C@@H](C(C)C)NC(=O)[C@@H](C(C)C)OC(=O)[C@H](C(C)C)NC(=O)[C@H](C)OC(=O)[C@@H](C(C)C)NC(=O)[C@@H](C(C)C)OC1=O | Feline infectious peritonitis virus | viral replication, visual scoring | – | 48 h | EC50 | 1.63 ± 0.1 µM |
| O.O.O.O.O.O.O.O.O.O=C([O-])[C@@H]1[O][Sb](=[O])([O][Sb]2(=[O])[O][C@H]([C@H](O)CO)[C@H](O)[C@H](C(=O)[O-])[O]2)[O][C@H]([C@H](O)CO)[C@@H]1O.[Na+].[Na+].[Na+] (some centres unmarked) | Leishmania amazonensis | parasite infection | THP-1, eGFP-expressing amastigotes | – | EC50 | 120 ± 18 µg/mL |
| CCOC(=O)NC(=O)c1ccsc1NC(=O)c1nc2ccccc2s1 | Leishmania amazonensis | alamarBlue | axenic amastigotes | 72 h | EC50 | 0.52 ± 0.12 µM |
| Cc1ccc(S(=O)(=O)N2C(=O)CSC2c2ccc(O)cc2)cc1 (centres unmarked) | herpes simplex virus 2 | viral cytopathicity | HEL, G | – | EC50 | > 100 µM |
| O=c1[nH]c(=O)c2ncn(CC(CO)OCP(=O)(O)O)c2[nH]1 (racemic) | Human alphaherpesvirus 3 | plaque formation, inhibitor | HEL | – | EC50 | 27.1 µM |

Excerpt of the above:
| Molecule | target or system | test | test system | setting | endpoint | value |
| --- | --- | --- | --- | --- | --- | --- |
| CNC(=O)c1ccc(-c2cnn3ccc(C(=O)N(C)c4ccc(Cl)c(C(=O)OC)c4)cc23)cc1 | Cryptosporidium parvum | cytopathic effect | HCT-8 | 48 h | EC50 | 0.052 ± 0.013 µM |
| O=C(Cc1csc2nc(-c3ccc(Br)cc3)cn12)NN=C1CCC(c2ccc(O)cc2)CC1 (centres unmarked) | feline coronavirus | viral cytopathic effect | CRFK | – | EC50 | > 100 µg/mL |
| C=C1[C@H](CO)[C@@H](O)C[C@@H]1n1cnc2c(=O)[nH]c(N)nc21 | hepatitis B virus | viral replication | HepG2.2.15 | – | EC50 | 0.008 ± 0.001 µM |
| Cc1ccc(S(=O)(=O)N2C(=O)CSC2c2ccccc2O)cc1 (centres unmarked) | herpes simplex virus 2 | viral cytopathicity | HEL, G | – | EC50 | > 100 µM |
